Measured values collected from several papers.
Each numbered part is a random draw from the data of one study; scales do not carry over between parts.

Series 1 — technique: RNA Bind-n-Seq; molecule type: RNA; sample: in vitro; concentration: not given; setting: 4-mer, random 30-nt RNA, single round; added: RocA, ADP, phosphate; reference: input library; direction: higher = stronger binding
Target: Eukaryotic initiation factor 4A-I (EIF4A1, Homo sapiens, UniProt P60842, residues 1-406, full length assumed)
Chain of UniProt P60842 (whole entry, looked up): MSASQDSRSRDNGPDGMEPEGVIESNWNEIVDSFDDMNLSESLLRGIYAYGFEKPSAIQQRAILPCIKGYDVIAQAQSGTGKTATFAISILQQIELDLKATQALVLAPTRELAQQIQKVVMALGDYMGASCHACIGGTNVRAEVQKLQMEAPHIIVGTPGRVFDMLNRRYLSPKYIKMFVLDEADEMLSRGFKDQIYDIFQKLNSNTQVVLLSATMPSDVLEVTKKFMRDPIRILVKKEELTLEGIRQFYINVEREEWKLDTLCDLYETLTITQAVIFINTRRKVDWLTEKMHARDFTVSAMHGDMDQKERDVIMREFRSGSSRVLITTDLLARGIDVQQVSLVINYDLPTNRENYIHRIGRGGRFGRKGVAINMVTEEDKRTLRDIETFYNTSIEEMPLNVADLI
Strand | 4-mer enrichment [fold]
UCGG | 0.833
GCGA | 1.16
CAGG | 0.935
UCUC | 0.455
CCGU | 0.631
ACAG | 0.89
AAUU | 1.05
GGAG | 3.67
CAAA | 0.864
AGAG | 3.49
GUGC | 0.845
GGAU | 0.941
CGCC | 0.598
ACUC | 0.468
CCAU | 0.615
CUGG | 0.837
CCCC | 0.67

Series 2 — technique: RNA Bind-n-Seq; molecule type: RNA; sample: in vitro; concentration: 100 nM; reference: input RNA pool; direction: higher = stronger binding
Target: RING finger protein unkempt homolog, zinc fingers 1-6, SBP tag (UNK, Homo sapiens, UniProt Q9C0B0, residues 30-357)
Chain of UniProt Q9C0B0 (30-357, looked up): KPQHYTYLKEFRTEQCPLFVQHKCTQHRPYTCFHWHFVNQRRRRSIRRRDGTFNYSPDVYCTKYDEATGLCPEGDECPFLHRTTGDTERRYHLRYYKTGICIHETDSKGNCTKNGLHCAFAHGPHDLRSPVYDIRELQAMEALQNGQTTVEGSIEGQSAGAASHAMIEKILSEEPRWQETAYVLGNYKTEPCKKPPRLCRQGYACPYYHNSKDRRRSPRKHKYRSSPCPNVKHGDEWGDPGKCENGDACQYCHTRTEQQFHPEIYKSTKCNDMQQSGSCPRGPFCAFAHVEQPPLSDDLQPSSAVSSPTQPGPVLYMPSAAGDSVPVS
Setting: RNA with constant flanks, vertebrate orthologous sites, ends assumed
Shared flanks, not repeated: GGGAGUUCUACAGUCCGACGAUC … CAACAGAGGAUUGAGCAUCA
Strand | bound/input enrichment
GUUGGGUCAUGAUCCUUAUAGGUUAGGUCAUGAUGCUUACAGGUUAGGACAGGACCCCUAUAGGUUAGGCCAUGAUCCCUACAGACUAACACCUGACCCCUACAGGAUGUCACCGAGACC | 0.383 ratio
AAAUCUACUUCAUGCCUUGGACUCCAUAUAGGACAGACACAUUAAUCGAAUAUUCCUCCCUGGAUGACGUCCAAAACGCCCGGCAGACCAUCACCUACAAGCUGCCUCACCGGGUGGACG | 0.425 ratio
UUUUUUUUAAUUUAAUUUUUCCCUUUUUUUUUGGGGGGGGGUCAAGUUUGCUCUACCAAAUAGUGAUCGUAACAAAUUUGAUCUGUUUUGGAUGUUACCAUAGUGAGAUGCAAUUCUAUA | 3.93 ratio
UAUAAUUAUGAAAUUCUAACGGAUUUUUAAUGUUUAAUUUCCCCUGACAUAUAGAGACUUUCUUUUUUUUUCCAGGCAGAUAAUUCAGAGUGUGCGAGUGUGUGUGCACAUGUUACAAAG | 0.542 ratio
CAACUCCAUGGUUGAAGGUUCAGAACUCAGGAAAGUUCGAUCCAACUCUAGAAUAUACCACCGGUACUUCCUUUUAGAUGCAGAUAUGCAAUCUCUGCGUUGGGAGCCUUCAAAGAAAGA | 0.273 ratio
UCAUUCUCUUCUCCCUUAUCCUGAUUUUAAAAGCCCUUUUUCUUUUCUUUUUUUUUCUAGGCAUAUGUAGUAACAUUAGCAGAAAGAUUUAAUUUGGGCAACUUUGAUUCUUAAAAGAGA | 0.869 ratio
UUCACCACUCCUGGGUGCAUGAUUGAGGGUGAAGCAUCCACCAGCACUUCAAGGGGUCCAUAGUAUUUUUUUUUUUUUGCUGCCUCAAAGUCCCCAAAGCCUUCGAGCAGAAGUGGCAGU | 3.27 ratio
CAUGUCCUUGUUACUGUGAUACUUAAAAUAUCCACAGUACUCACUUUUUCCAAAUGAUUCUAGUAAUUGCCUAGACAUACCUUUCUCUUACCUGUUAUUUAUCAAUUUUUCCAGUAUUUU | 1.33 ratio

Series 3 — technique: RNA Bind-n-Seq; molecule type: RNA; sample: in vitro; concentration: 365 nM; reference: no-protein control; direction: higher = stronger binding
Target: RNA binding protein fox-1 homolog 2, RRM domain, GST-SBP tag (RBFOX2, Homo sapiens, UniProt O43251-10, residues 100-194)
Setting: natural RNA segment, single round, ends assumed
Shared flanks, not repeated: GGGAGUUCUACAGUCCGACGAUC … UGGAAUUCUCGGGUGCCAA
Residues (chain): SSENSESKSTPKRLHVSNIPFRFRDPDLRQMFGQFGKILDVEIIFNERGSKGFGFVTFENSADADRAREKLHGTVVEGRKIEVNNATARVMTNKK
Strand | RBNS enrichment (R)
ACAAUGCUUUAUUGAAAAGCUUCAAAGUUCAUUAAGCUGAUGCAGUGCUUAGAGAGAGCAAUGUCCAAUCUGUGGCUUGGGAGGUGUCUGCAAGUGACAUUCCUGCGAGC | 0.699
GGUCCCAAAUGGGGGCCCCAUUUCACCUGUAUCAGGACUCUGAGCAUCCCCAGCUGCCCCACAUCUUGCCUCUGGCCCUCAGAGAGGGGUGUUUCUGUGGGUACUCCUCU | 0.38
AGGAAAAAAAGUUCUAAGCUUCUUAUGUGGUCCACAAGGAAUCCAUAUUUGAGAAACAUGAUUAGGUGAAUAAAGUAUUCUAGCAAAAGCUCUAAUCUGUAGAUCAAAAU | 0.538
CACUGCCUUAAAAUGAUACUUAUUUCCUUAAAAAAGAAAAUAAAAUAAGAGAUAUCAGUCAGAAUUGCAGAUUUUUAACAGUGGUCAUUAUUAAAGCUGUGUUAUUUUCC | 0.492
CUCCUCUGUAGUCAUCUUAUUUGGAUCAGGGAGAAGCAUGAACAAAAAUAUGUUCCAGAACCAUGUGCAAGCUCUGUAAGUCACUGCCCGUGUCUGGAUGAAGGGCUUUC | 3.19
UCCCUCCUAACAGCACGGAUUCUCUUGGGGCUCUUCUUCAGGGAAGAGUAGGGACGCCGUUCCAGCCCCCCUUCCUAUCGUGUCCUUGGGUUCGGGUCACUGCGGCGACG | 0.338
AUGUAAAAAUUGAUAUAGUUGUGAUACAGAGUAUAUUUCCCUUCAGAUAACAUACCACAACACAAUGGAUAAUGUAUUUUAGAUAUAUUCUCUAAUAAAAUUGAGAACUC | 0.417
UGCUAAUAGUAAGUUCUUUGUGCACCUUCCACCACUUCUGAGCCACUACUAUUCAAGUAGAGAUUUGCCCCAACACAUUAACUUUUUCCUUGGAGAUUUAUAUGGUCCUG | 0.422

Series 4 — technique: protein-binding microarray; molecule type: double-stranded DNA, one strand shown; sample: in vitro; concentration: 0.8 µM; setting: whole 60-bp probe, no competitor; direction: higher = stronger binding; shared flanks, not repeated: … GTCTTGATTCGCTTGACGCTGCTG
Target: Centromere-binding protein 1, full length, N-terminal tag (CBF1, Saccharomyces cerevisiae, UniProt P17106, residues 1-351)
Chain of UniProt P17106 (whole entry, looked up): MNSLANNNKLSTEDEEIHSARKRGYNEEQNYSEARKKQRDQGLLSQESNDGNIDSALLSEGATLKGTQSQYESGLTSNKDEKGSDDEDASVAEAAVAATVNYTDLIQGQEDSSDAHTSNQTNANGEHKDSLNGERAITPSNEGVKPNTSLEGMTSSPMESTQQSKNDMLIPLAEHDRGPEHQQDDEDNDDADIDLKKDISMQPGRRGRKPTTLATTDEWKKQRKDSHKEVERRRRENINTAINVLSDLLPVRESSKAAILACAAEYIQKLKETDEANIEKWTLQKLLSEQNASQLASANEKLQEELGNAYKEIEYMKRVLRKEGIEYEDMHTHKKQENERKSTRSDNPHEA
Strand | fluorescence intensity
GAATTAATGGCAGTGCACATGTTTAAGGACGTTTAG | 660 a.u.
GAAAGCCCAAAACTTAACGTGCACCAACACGTGTAG | 3510 a.u.
CTAAGTTCTTCAGCAAACGTGATTTGCAAAACATTC | 1740 a.u.
GAAGGGTGTGTGGGTGTGGTGTGGGTGTGGGTGTAG | 507 a.u.
GAACAAATGTTACGTGGTGTTGAAGAAAGAATGTAG | 582 a.u.
CCTAACTACTATACTGATGTCTTATAGCTTCGTACA | 537 a.u.
GAACTTCTTATAATTGACGTCATAAAAAATATTTAG | 511 a.u.
CTATGCGCGTAAAAACAGGAGATAAGCACTGTTTTC | 505 a.u.
CTACGAAGAAAGCACGTGAGGATTGAAGAAAACTTC | 5580 a.u.
GAAACCCATAAACCACACGTTTAACTATTTGGGTAG | 500 a.u.
CTACTGAAGATTCGAAACGTGTTTCTAAAACCATTC | 599 a.u.
CTACTGCATCTTATTCCCGTGCCAAGGTCTCTGTTC | 675 a.u.
CTAAGTTCATATTCTCACGTTTTTCGCAAGATATTC | 644 a.u.
GAAGTTCTAACTAAGCATCAGAACATAATACAATAG | 507 a.u.
CTATCATTTGAATAGTACATGATGCAATAGAAGTTC | 597 a.u.
GAAGTATTGTGCGAGCACGCAGGACGGGAAAAATAG | 553 a.u.
CTACTTTTTCACGGTGACGCCATTTTGCGCGGCTTC | 571 a.u.
GAAACAAGGCTTTTAAACGTGATTGTGTTGTATTAG | 701 a.u.
CTAGAACTTTGAGCTCCCTCACGTGGAAAATATTTC | 5630 a.u.

Excerpt of the above (series 1):
Strand | 4-mer enrichment [fold]
GCGA | 1.16
UCUC | 0.455
CGCC | 0.598
GGAU | 0.941
UCGG | 0.833
GGAG | 3.67
AAUU | 1.05
CAAA | 0.864
